# Assay results gathered from unrelated publications.
# Numbers after ± are the reported error.
# Technique: steady-state kinetics
# B1: enzyme E217L/L163H/N249W (Thermobifida fusca, UniProt Q47RK4); chain MTDVYILDAVRTPFGRYGGALSGIRPDDLAAHVLRALAERSPGLDPAAVDDVFFGDANGAGEDNRNVARMAALLAGWPTSVPGVTLNRLCGSGMESVIAANRAIAVGDASLAVAGGVESMSRAPWVLPKPAQGFPTGHETLYSTTLGWRMVNPAMPEQWTVSHGESTEQVAATYGISRAEQDAFALRSHERAARAWAEGVFDAEITQIPGAELERDLSIRETSAEKLAALKPAFRPDGTITAGNASPLWDGAAALLIGDAAAAERVGREPLARIVSRGVAAVDPDVFGIGPVQAAEIALRRAGIGWDDLSVVELNEAFAAQSLACLKLWPDLDPEIVNPNGGAIAIGHPLGASGARIVGTLAHELHRRGGGWGLAAICIGVGQGLAVVLHR
# B2: enzyme W1065M (Limosilactobacillus reuteri, UniProt Q5SBN3); chain INGQQYYIDPTTGQPRKNFLLQNGNDWIYFDKDTGAGTNALKLQFDKGTISADEQYRRGNEAYSYDDKSIENVNGYLTADTWYRPKQILKDGTTWTDSKETDMRPILMVWWPNTVTQAYYLNYMKQYGNLLPASLPSFSTDADSAELNHYSELVQQNIEKRISETGSTDWLRTLMHEFVTKNSMWNKDSENVDYGGLQLQGGFLKYVNSDLTKYANSDWRLMNRTATNIDGKNYGGAEFLLANDIDNSNPVVQAEELNWLYYLMNFGTITGNNPEANFDGIRVDAVDNVDVDLLSIARDYFNAAYNMEQSDASANKHINILEDMGWDDPAYVNKIGNPQLTMDDRLRNAIMDTLSGAPDKNQALNKLITQSLVNRANDNTENAVIPSYNFVRAHDSNAQDQIRQAIQAATGKPYGEFNLDDEKKGMEAYINDQNSTNKKWNLYNMPSAYTILLTNKDSVPRVYYGDLYQDGGQYMEHKTRYFDTITNLLKTRVKYVAGGQTMSVDKNGILTNVRFGKGAMNATDTGTDETRTEGIGVVISNNTNLKLNDGESVVLHMGAAHKNQKYRAVILTTEDGVKNYTNDTDAPVAYTDANGDLHFTNTNLDGQQYTAVRGYANPDVTGYLAVWVPAGAADDQDARTAPSDEAHTTKTAYRSNAALDSNVIYEGFSNFIYWPTTESERTNVRIAQNADLFKSWGITTFELAPQYNSSKDGTFLDSIIDNGYAFTDRYDLGMSTPNKYGSDEDLRNALQALHKAGLQAIADWVPDQIYNLPGKEAVTVTRSDDHGTTWEVSPIKNVVYITNTIGGGEYQKKYGGEFLDTLQKEYPQLFSQVYPVTQTTIDPSVKIKEWSAKYFNGTNILHRGAGYVLRSNDGKYYNLGTSTQQFLPSQLSVQDNEGYGFVKEGNNYHYYDENKQMVKDAFIQDSVGNWYYFDKNGNMVANQSPVEISSNGASGTYLFLNNGTSFRSGLVKTDAGTYYYDGDGRMVRNQTVSDGAMTYVLDENGKLVSESFDSSATEAHPLKPGDLNGQK
# B3: enzyme (Papaver somniferum, UniProt Q9SQ68); chain MESNGVPMITLSSGIRMPALGMGTAETMVKGTEREKLAFLKAIEVGYRHFDTAAAYQSEECLGEAIAEALQLGLIKSRDELFITSKLWCADAHADLVLPALQNSLRNLKLDYLDLYLIHHPVSLKPGKFVNEIPKDHILPMDYKSVWAAMEECQTLGFTRAIGVCNFSCKKLQELMAAAKIPPVVNQVEMSPTLHQKNLREYCKANNIMITAHSVLGAICAPWGSNAVMDSKVLHQIAVARGKSVAQVSMRWVYQQGASLVVKSFNEGRMKENLKIFDWELTAENMEKISEIPQSRTSSADFLLSPTGPFKTEEEFWDEKD
# B4: enzyme N249W (Thermobifida fusca, UniProt Q47RK4); chain MTDVYILDAVRTPFGRYGGALSGIRPDDLAAHVLRALAERSPGLDPAAVDDVFFGDANGAGEDNRNVARMAALLAGWPTSVPGVTLNRLCGSGMESVIAANRAIAVGDASLAVAGGVESMSRAPWVLPKPAQGFPTGHETLYSTTLGWRMVNPAMPEQWTVSLGESTEQVAATYGISRAEQDAFALRSHERAARAWAEGVFDAEITQIPGAELERDESIRETSAEKLAALKPAFRPDGTITAGNASPLWDGAAALLIGDAAAAERVGREPLARIVSRGVAAVDPDVFGIGPVQAAEIALRRAGIGWDDLSVVELNEAFAAQSLACLKLWPDLDPEIVNPNGGAIAIGHPLGASGARIVGTLAHELHRRGGGWGLAAICIGVGQGLAVVLHR
# B5: xoxF1 (Methylorubrum extorquens, UniProt C5B120); chain NESVLKGVANPAEQVLQTVDYANTRYSKLDQINASNVKNLQVAWTFSTGVLRGHEGSPLVVGNIMYVHTPFPNIVYALDLDQGAKIVWKYEPKQDPSVIPVMCCDTVNRGLAYADGAILLHQADTTLVSLDAKSGKVNWSVKNGDPSKGETNTATVLPVKDKVIVGISGGEFGVQCHVTAYDLKSGKKVWRGYSIGPDDQLIVDPEKTTSLGKPIGKDSSLKTWEGDQWKTGGGCTWGWFSYDPKLDLMYYGSGNPSTWNPKQRPGDNKWSMTIWARNPDTGMAKWVYQMTPHDEWDFDGINEMILTDQKFDGKDRPLLTHFDRNGFGYTLDRATGEVLVAEKFDPVVNWATKVDLDKGSKTYGRPLVVSKYSTEQNGEDVNSKGICPAALGTKDQQPAAFSPKTGLFYVPTNHVCMDYEPFRVTYTPGQPYVGATLSMYPAPGSHGGMGNFIAWDNLQGKIKWSNPEQFSAWGGALATAGDVVFYGTLEGFLKAVDSKTGKELYKFKTPSGIIGNVMTYEHKGKQHVAVLSGVGGWAGIGLAAGLTDPNAGLGAVGGYAALSSYTNLGGQLTVFSLPNN
# B6: protein E15D (Rhodopseudomonas palustris, UniProt Q6N3R9); chain MSNVRVLATDLAFPDGPVVMPDGSVVLVEIRAQQLTRVWPDGRKEVVAKVPGGPNGAALGPDGKMYICNNGGFGWFPSRGTMMPGAPAPHEYIGGSIQRVDLQSGEVETLFDKCGEHPLKGPNDLVFDKHGGLWFTDLGKRRARDMDVGAAYYIKPGMTEITEQVFGTLPLNGIGLSPDEATMYAAETPTGRLWAFDLSGPGEVKPRDVIYRGEKGKPICGLGGYQMFDSLAVEASGNVCVATLVSGCISVIAPDGTLVEQVPTGDRVTTNIAFGGPDLKTAYITLSGKGELIAMDWSRPGLPLNFLNK
# B7: Lxyl-p1-1 A72T (Lentinula edodes, UniProt G8GLN9); chain YFSGLGLGSERSIFRRDLNSTGDESNSTQWPAPLANGGKSWASAFKKAKSTVTEMTVEELANITSGVIGLCVGVTGAVTRLGIPELCLQDGPIGPRGVHGSSQFPAGLTVAATWDRTLMYARARGMGQEFHDQGVHIALAPVTGGPLGRTPLNGRGWEGTFADPYACGEASYQSVKGLTDAGVATVSKHWIAYEQETSRNLYIEFDGVSQADIQLPISSNVDDLTMHELYMWSFAEAVRAGTNHIMCSYNRINNTHSCNNAKGLNQLLKTELNFQGGVVSDWGGQWDSVLSAENGLDVGMPGEGFLGELGDFWGTTLADLINNGTVSEDLVRDKVVRLLTGYYYLGQDINPPPPFVYNTIGAPTLNATSGYRNVRKPGTAELIKEIGSASVTLLKNTGSLPLKHPQRIAVLGNDATYNVLGPNACGLANSACDIDNLNGTLTTGGGSGSALSPYTITPLEALQKRAIEDNAEIAAVVANSNTTTGAEDAIAALLPDADVTFVFLNRYSEEGADAPDFSLGGDGDNLMDLAVTYSSNVVVVIHTTGVVDIEKWADNPNVTAILVAYLPGQEAGNSLVPVLYGDVAPSGKLPWTWGKSIDDYVPNGVVYTDAYSPQSNFTEGVFIDYRWFDKMGITPRYEFGFGLSYTTFTYSNLIVDHGRWAKDYSSVMETAEPFAEWDGTNSLYDVIFTVFATITNTGNLTGSEVAQLYISIPGDNQPVRQLRGFDKIKDLPVGDSAVVTFPIRRKDVSSWSVVDQLWYVPNGDFLISVGGSSRDLPLNTTWTP
# B8: CPB2 (Homo sapiens, UniProt Q96IY4); chain ASASYYEQYHSLNEIYSWIEFITERHPDMLTKIHIGSSFEKYPLYVLKVSGKEQAAKNAIWIDCGIHAREWISPAFCLWFIGHITQFYGIIGQYTNLLRLVDFYVMPVVNVDGYDYSWKKNRMWRKNRSFYANNHCIGTDLNRNFASKHWCEEGASSSSCSETYCGLYPESEPEVKAVASFLRRNINQIKAYISMHSYSQHIVFPYSYTRSKSKDHEELSLVASEAVRAIEKISKNTRYTHGHGSETLYLAPGGGDDWIYDLGIKYSFTIELRDTGTYGFLLPERYIKPTCREAFAAVSKIAWHVIRNV
# B9: enzyme L163H/N249W (Thermobifida fusca, UniProt Q47RK4); chain MTDVYILDAVRTPFGRYGGALSGIRPDDLAAHVLRALAERSPGLDPAAVDDVFFGDANGAGEDNRNVARMAALLAGWPTSVPGVTLNRLCGSGMESVIAANRAIAVGDASLAVAGGVESMSRAPWVLPKPAQGFPTGHETLYSTTLGWRMVNPAMPEQWTVSHGESTEQVAATYGISRAEQDAFALRSHERAARAWAEGVFDAEITQIPGAELERDESIRETSAEKLAALKPAFRPDGTITAGNASPLWDGAAALLIGDAAAAERVGREPLARIVSRGVAAVDPDVFGIGPVQAAEIALRRAGIGWDDLSVVELNEAFAAQSLACLKLWPDLDPEIVNPNGGAIAIGHPLGASGARIVGTLAHELHRRGGGWGLAAICIGVGQGLAVVLHR
Molecule,substrate,pH,temperature,setting,added,kcat/Km
"wbpB (Pseudomonas aeruginosa, UniProt G3XD23)",CC(=O)N[C@H]1[C@@H](OP(=O)(O)OP(=O)(O)OC[C@H]2O[C@@H](n3ccc(=O)[nH]c3=O)[C@H](O)[C@@H]2O)O[C@H](C(=O)O)[C@@H](O)[C@@H]1O,pH 8.5,25 °C,,,2.2e+07 M⁻¹ s⁻¹
pyc R472S (Rhizobium etli),Nc1ncnc2c1ncn2[C@@H]1O[C@H](COP(=O)(O)OP(=O)(O)OP(=O)(O)O)[C@@H](O)[C@H]1O,pH 7.8,30 °C,,,2000 M⁻¹ s⁻¹
B1 (enzyme E217L/L163H/N249W),CC(C)(COP(=O)(O)OP(=O)(O)OC[C@H]1O[C@@H](n2cnc3c(N)ncnc32)[C@H](O)[C@@H]1OP(=O)(O)O)[C@@H](O)C(=O)NCCC(=O)NCCSC(=O)CCC(=O)O,pH 7.4,37 °C,,,16.7 M⁻¹ s⁻¹
B2 (enzyme W1065M),OC[C@H]1O[C@@](CO)(O[C@H]2O[C@H](CO)[C@@H](O)[C@H](O)[C@H]2O)[C@@H](O)[C@@H]1O,pH 4.7,37 °C,,,1200 M⁻¹ s⁻¹
B3 (enzyme),COc1ccc2c3c1O[C@H]1[C@@H](O)C=C[C@H]4[C@@H](C2)N(C)CC[C@@]341,,,,,16300 M⁻¹ s⁻¹
B4 (enzyme N249W),CC(C)(COP(=O)(O)OP(=O)(O)OC[C@H]1O[C@@H](n2cnc3c(N)ncnc32)[C@H](O)[C@@H]1OP(=O)(O)O)[C@@H](O)C(=O)NCCC(=O)NCCSC(=O)CC(=O)O,pH 7.4,37 °C,,,1.17 M⁻¹ s⁻¹
B5 (xoxF1),CO,,30 °C,,,190000 ± 30000 M⁻¹ s⁻¹
ω-transaminase A60V/E38Q/F86L/I154V/M128F/P9A/R417L/S87N/W58M (Pseudomonas jessenii),CCCC(=O)c1ccccc1,pH 8,56 °C,apparent,"isopropylamine 1 M, PLP 0.05 mM",1800 ± 500 M⁻¹ s⁻¹
B6 (protein E15D),O=C1CCc2ccccc2O1,pH 8,,"NaCl 150 mM, no saturation",CaCl2 1 mM,4000 M⁻¹ s⁻¹
B7 (Lxyl-p1-1 A72T),[H][C@]12[C@H](OC(=O)c3ccccc3)[C@]3(O)C[C@H](OC(=O)[C@H](O)[C@@H](NC(=O)c4ccccc4)c4ccccc4)C(C)=C([C@@H](O)C(=O)[C@]1(C)[C@@H](O[C@@H]1OC[C@@H](O)[C@H](O)[C@H]1O)C[C@@]1([H])OC[C@@]21OC(C)=O)C3(C)C,,,,,4540 ± 40 M⁻¹ s⁻¹
"DAO1 (Trigonopsis variabilis, UniProt Q99042)",O=C1C(Cl)=CC(=Nc2ccc(O)cc2)C=C1Cl,pH 8,22 °C,"varied electron acceptor, apparent",D-methionine 200 mM,1000 M⁻¹ s⁻¹
"plcB (Listeria monocytogenes, UniProt P33378)",CCCCCCC(=O)OC[C@H](COP(=O)([O-])OCC[N+](C)(C)C)OC(=O)CCCCCC,pH 6,37 °C,,,42000 ± 15000 M⁻¹ s⁻¹
B8 (CPB2),C[C@H](NC(=O)[C@H](Cc1ccccc1)NC(=O)[C@H](CCC(N)=O)NC(=O)CNC(=O)[C@@H]1CCCN1C(=O)[C@H](Cc1ccccc1)NC(=O)[C@@H](N)Cc1ccc(O)cc1)C(=O)N[C@@H](Cc1ccccc1)C(=O)N[C@@H](CO)C(=O)N[C@@H](CCCCN)C(=O)O,,37 °C,,,22000 M⁻¹ s⁻¹
"aacA-aphD (Staphylococcus aureus, UniProt P0A0C1)",NCC[C@H](O)C(=O)N[C@@H]1C[C@H](N)[C@@H](O[C@H]2O[C@H](CN)[C@@H](O)[C@H](O)[C@H]2O)[C@H](O)[C@H]1O[C@H]1O[C@H](CO)[C@@H](O)[C@H](N)[C@H]1O,pH 7.5,25 °C,,,23000 M⁻¹ s⁻¹
B9 (enzyme L163H/N249W),CC(C)(COP(=O)(O)OP(=O)(O)OC[C@H]1O[C@@H](n2cnc3c(N)ncnc32)[C@H](O)[C@@H]1OP(=O)(O)O)[C@@H](O)C(=O)NCCC(=O)NCCSC(=O)CCC(=O)O,pH 7.4,37 °C,,,5.67 M⁻¹ s⁻¹
"OXA-48 (Klebsiella pneumoniae, UniProt Q6XEC0)",CC(=O)OCC1=C(C(=O)O)N2C(=O)[C@@H](NC(=O)Cc3cccs3)[C@H]2SC1,pH 7.2,30 °C,,,20000 M⁻¹ s⁻¹

# Repeated from above:
Molecule,substrate,pH,temperature,setting,added,kcat/Km
"OXA-48 (Klebsiella pneumoniae, UniProt Q6XEC0)",CC(=O)OCC1=C(C(=O)O)N2C(=O)[C@@H](NC(=O)Cc3cccs3)[C@H]2SC1,pH 7.2,30 °C,,,20000 M⁻¹ s⁻¹
"DAO1 (Trigonopsis variabilis, UniProt Q99042)",O=C1C(Cl)=CC(=Nc2ccc(O)cc2)C=C1Cl,pH 8,22 °C,"varied electron acceptor, apparent",D-methionine 200 mM,1000 M⁻¹ s⁻¹
